# Experimental data pooled from the literature.
# Parts stem from different laboratories: compare values within a part only. Substitutions count along the parent as printed.

# Sample 1
# Target: RNA binding protein fox-1 homolog 2, RRM domain, GST-SBP tag (RBFOX2, Homo sapiens, UniProt O43251-10, residues 100-194)
# Method: RNA Bind-n-Seq
# Molecule type: RNA
# Medium: in vitro
# Concentration: 365 nM
# Notes: natural RNA segment, single round, ends assumed
# Reference: no-protein control
# Direction: higher = stronger binding
# Shared flanks, not repeated: GGGAGUUCUACAGUCCGACGAUC … UGGAAUUCUCGGGUGCCAA
# Residues (chain): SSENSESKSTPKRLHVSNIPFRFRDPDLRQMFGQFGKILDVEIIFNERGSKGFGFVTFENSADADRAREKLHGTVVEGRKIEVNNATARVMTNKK
Oligonucleotide,RBNS enrichment (R)
CUCAGCAUUUACUUUGUUUCUUUUGCUUAGGAAAUUGCUCAUAAUCUGGUUAUAAUUUUGGUCCAAAUUCUUUAUUCUUCCUUGAGCUAAGCAGAAUAAUGGAAUAUAAU,0.528
AGCCACCAUGUGGUUGCUUUAAGAUUUAUGUAUAUGAGUACACUGUGGCUGUCUCAGACACACCAGAAGAGGGCAUCAGAUCCCAUUACAGAUGGUUGUGAGCCACCAUG,0.296
GAUCAGUUGACAGUGGCAAUAAACUGUAAAUAACUUGCCCUGGGGGCCUUUUUUUAAAAAACAAAACAAAUUCCCAAACCAUACUUGCUAAAAGUUCUGGUAAGUAUGUG,0.474
AGCGUUCACAGUUAGAUUUUCACCUCGUGCCACUCUCUUUUGGGGUCUGGCUUGAGCAUCUAUGGGCAGCCACAGCGACCAGUCUAGUCCCAGACAGCACAGGUCAAGCA,0.488
UAAGUUAUUUAAUGUUAAUAUACAUAGCUAGACUUAAGGUUUUUCAGAAAGAUGUCCAUAAUAAAUAUUAAAAACAAUGGUAUUUUUUAAAAAACUGCCUUAGGGUUUUA,0.499
UGAAAAGAAUUGUCUCUAAUUAUUUGAACCUCUGAAGAAUUGUACACAAGGAGGAUCAGACUUUAAAACUAUCCAUGUGGAUUCUGAGAGCUGCUGCCCAGCAGAAGUCU,0.28
UUGCUUUCAUUAUUACCAAGUCAAGAGUACAACAGAGCUAGUGAACCGUAGCAGCAUGCGAAGCAGGGCUGUGAACUAUCACCACACAGUGCAUUGUCCCGUGGAGGUGU,3.7
CCCAGUAUCCUCUUGUAUGACUGUAUAUGUCUAUGUCUGGGAUCCAGGGCAAAUGUGAAUUUUCUUUUGAUUUGGGAGAUUGUUCACAGGAAGUAGUCCUCCCCUCUCAU,0.482
GAUGCCUCUCUGAGUGGAAAUCUUAUUUUUGUAGAUCUGUACUUUGCUCUCGAGGCUUGGAGAGAUGUGUGUCCCUCCCUGGCACUCACUUCAGGCCGCAUGGGCAGGAA,0.63
AACAGUUUUAUGCUGAUGAUAAUUUAUCUACAUGCAUUUCAAUAAACCUUUUGUUUCCUAAGACUAGUACAUGGUACCUUUAUUGACCAUUAAAAACCACCACUUUUUGC,0.277
CUCCACCCGCUCUUCCUUCCCAGCCUGCCUGCAUGCAUGUGCACCCUUGGUCUUCGCUCCAUCGCCUUGAAAGCUCUGAAGAGGCCCUGGGUUGCCGCGGCAGCAGUGGU,25.8
UGGUUUUAGCUAUGCUUAUGAAAUUGAGAAACAAUUGCAAUGUUAAGAGUUUAUGUGAAGUAUACAUCUUUGUACUUGGAAGAGUCUAAGUUGUUUAUAUUUGGUAAAAG,0.492

# Sample 2
# Target: RING finger protein unkempt homolog, zinc fingers 1-6, SBP tag (UNK, Homo sapiens, UniProt Q9C0B0, residues 30-357)
# UniProt Q9C0B0, sequence (30-357, looked up): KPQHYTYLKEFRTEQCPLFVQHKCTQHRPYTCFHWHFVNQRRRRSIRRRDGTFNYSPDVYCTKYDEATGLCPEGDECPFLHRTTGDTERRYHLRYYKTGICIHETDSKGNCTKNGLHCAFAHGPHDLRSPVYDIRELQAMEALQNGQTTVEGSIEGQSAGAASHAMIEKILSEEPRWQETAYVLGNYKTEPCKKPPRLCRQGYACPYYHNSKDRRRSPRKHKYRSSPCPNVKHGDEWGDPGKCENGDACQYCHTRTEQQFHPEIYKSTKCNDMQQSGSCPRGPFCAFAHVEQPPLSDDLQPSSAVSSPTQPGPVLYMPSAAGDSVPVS
# Method: RNA Bind-n-Seq
# Molecule type: RNA
# Medium: in vitro
# Concentration: 100 nM
# Notes: RNA with constant flanks, vertebrate orthologous sites, ends assumed
# Reference: input RNA pool
# Direction: higher = stronger binding
# Shared flanks, not repeated: GGGAGUUCUACAGUCCGACGAUC … CAACAGAGGAUUGAGCAUCA
Oligonucleotide,bound/input enrichment
AUACCUCCUGAACUUCUAGCUUUUCAGUUGUGGCUAUUUUAGAUACUGGUUUCUUUUCUUUAGAAUUUUCCCAGUUUCCUACCUUCUCUUUUCCCUGUUCCCAAGGUUUGACUCAUGGAU,0.945 ratio
ACUCUCAGAUGCAGUGUAUAAGUUAUCCAAGGCAGUCACUUGAGCUUCAUGUAUACUGUUAGUUUUAAAGUCAUUUAUGUUUAUUUAAACUUCUAGAUUGGAUUGUUUCUUAUUGCUCUA,0.949 ratio
CCGAAAGGCCAAAUUCCCUCCUCUCUUCUACUGCUUCUACCAACUGGAAGCACAGAAAACUAGAAUUUCAUUAUUUUGUUUUGAAAAAAUAUAUGUUGAUUUCUUGUAACAUCCAAUAGG,0.542 ratio
CUGUUGUUAAGCACUGUGUUCCAGACCAUGUCUGACUUUAGUGUAACCUAGGAGAUUUUAUAGUUUUAUUUUAAUGAACUCCUGCUUGACGCAGAGCAGUGGGGAGAGCAGUGUCCUCUG,2.37 ratio
UUUAAUCAAUGAGGUAUUUAAAUGUCCACUGAACAAAUAAGAGUCUAUUUAUAAAGAGAUUUAUUUAACUCCUGCAGUGCGAGAGCAGUCAGUGUGGCAUGUCGGAAACUCCCUAACCCA,0.192 ratio
CCCAGUUUGUAUGUACAUUAUUCAUAUUCCUCUCUGUUUUGUUGGAAAAAGAAAGACAUUUUAACCUUUUUUAAGGUUGUUGAUUUAAUUUCAUGUUAUUAGGUUGCAUGAUGUUGCCCU,0.248 ratio
AUUCAUUUGAUUAAAAAUUAUUUAGAUAAGAAAUUAUUACUGUUUAUCUUUGCUUUCAGAUAACGUAUCCUAUUUUUUAUCCAUUUUGCAAAAUACCUCUUGUGUGUGGUUUCUUAACCU,0.501 ratio
GCACAUGCCACUGUCGCCAAAAACGAGCUACCACUUUCCAAAUUUCAUUCAGAGCCAUUUUAGUGUUUUCCUAUUCCCUACCCCUCCCACUACUUUCAAUGAUGAAAUACCCUAAGUUCU,2.05 ratio
UACAGGGAAAACUCACAAACUCAAAGGAAAACUAUUAAAGAGUUUCUAAUAGUUAAAAGCUAGGAAAGAUUAGGACAACUUUACAAAUGAGAAAUUAAAAAUAAAACACAGGAAAAAGGA,0.589 ratio
AAUUUUUUAAAGUUUUUUUAAUUUAAUUUUUCCUUUGGGGGUACAGUUUGCUCUACCAAAUAGUGAUCGUAACAAAUUGAUCUGUUUUGGAUGUUGCUAUAGUGACAUGCAGUUAUAUAU,1.11 ratio
UGCUGUUAAUGCACUGUAUACCAGGCAUUGUCUGAACUUAGUGUAAUCUAGGAGAUUUUAUAGUUUUAUUUUAAUGAAGUACGGAUUGAAGCAAAGCUGUUAGGAAAAUGUAGUCUUUUA,2.07 ratio

# Sample 3
# Target: CCND1, cyclin fold, Cln2 fusion (human)
# Method: yeast growth competition, sequencing
# Medium: yeast
# Notes: weak parent motif
# Reference: not given
# Direction: higher = stronger binding
# Starting sequence: ITGB3BP docking peptide (human); MPVKRSLKLDGLL
Change,normalised enrichment score
MPVKRSLKADGLL [L9A],-0.216
MPVKKSLKFDGLL [R5K L9F],0.0434
MPVKRSLKLDGAL [L12A],0.0339
MPVKRSLKFDGLL [L9F],0.222
MPVKASAKLDGLL [R5A L7A],-0.11
MAVKRSLKLDGLL [P2A],0.286
MPVKRSLALDGLL [K8A],0.14
MPVKASLKLDGLL [R5A],-0.229
MPVARSLKLDGLL [K4A],0.374
MPVKRSAKLDGLL [L7A],0.54

# Sample 4
# Target: Histone acetyltransferase KAT6A, both winged helices, GST fusion (KAT6A, Homo sapiens, UniProt Q92794, residues 1-181)
# Method: protein binding microarray
# Molecule type: double-stranded DNA, one strand shown
# Medium: in vitro
# Concentration: not given
# Notes: 8-mer, flanks averaged, mean of 2 arrays, mostly near background
# Reference: not given
# Direction: higher = stronger binding
# Residues (chain): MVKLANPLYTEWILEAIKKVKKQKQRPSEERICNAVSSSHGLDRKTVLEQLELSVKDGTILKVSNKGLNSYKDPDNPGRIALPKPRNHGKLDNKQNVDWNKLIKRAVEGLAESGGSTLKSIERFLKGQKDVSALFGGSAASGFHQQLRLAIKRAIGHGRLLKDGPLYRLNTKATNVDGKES
Oligonucleotide,E-score
AACTCCAG,-0.0428
CCTTGGCG,0.0952
ACTACATA,-0.271
CAAGCCTA,-0.0667
AGAACCGC,0.139
AACATCCT,0.117
TACCCCAA,-0.234
AATATAAC,-0.0971
AATAATGT,-0.0522
AATGTTCT,-0.111
ATAAACTG,-0.0898
ACAAACTA,-0.18
CGACGTAC,0.0194
AACACATG,-0.113
TGAACGCA,0.0567
AGAGCAAT,-0.222
CGAATAAG,-0.0227
CGGTTTAG,0.119
ACAGTCTG,-0.25
TCTTTAAA,-0.113
ATACCGGA,0.122
GATAGATA,-0.0858
GGGTAGGA,-0.00275
CTCCCTTA,-0.264
CGCTCTAG,0.0989

# Sample 5
# Target: Interferon regulatory factor 5, full length, phosphomimetic (IRF5, Homo sapiens, UniProt Q13568-2, residues 1-514, S451D/S453D/S456D/S462D)
# Method: protein-binding microarray
# Molecule type: double-stranded DNA, one strand shown
# Medium: in vitro
# Concentration: 940 nM top
# Notes: 60-bp whole probe
# Together with: salmon DNA 0.4 mg/ml
# Reference: random background probes
# Direction: higher = stronger binding
# Shared flanks, not repeated: GCCTAGCAC … GTCTTGATTCGCTTGACGCTGCTG
Oligonucleotide,fitted relative affinity
TCAACTCTCTCCATGTGACTGTGCTAG,0.577 z-score
TTAGAACTGGGGACTGGCTTAGTGCTA,-0.0326 z-score
GACGGACTGGGTTACGGGACGTGCTAG,-0.4 z-score
GACGAATTCGGGTATCGAGACGTGCTA,1.06 z-score
GACGGTATCCTATTGCTGACGTGCTAG,0.255 z-score
TTAGATCTCAGTATCGCTTAGTGCTAG,2.01 z-score
TTAGGTATCGACTTTCGGTTGGTGCTA,6.25 z-score
TCATGTTTGGTCCTGAAACTGTGCTAG,0.303 z-score
CACGTTGCTCAAGGGCTTGAGTGCTAG,-0.629 z-score
TCATCTTTCGTTACTTCACTGTGCTAG,2.93 z-score
TTAGGTCTCGTTCTCGGTTAGTGCTAG,3.95 z-score
TTATATTCCAGTTTCGATTAGTGCTAG,9.16 z-score
AGAGCTAAGTGAGTGTCATCGTGCTAG,-0.793 z-score
TTAGAACTGGGGTAGCGATTAGTGCTA,0.111 z-score
CACGGTTTCCTTTCCCTGACGTGCTAG,1.61 z-score
TTAGATATCAGTATCGATAAGTGCTAG,4.2 z-score
TCAGGCTTAGTTTGTCAAACTGTGCTA,-0.54 z-score
GACGGTTTAGGTCTCGGGACGTGCTAG,0.792 z-score
GACGGACTGGACACTGGGAACGTGCTA,-0.417 z-score
ATATATGTAATCATTCACCTGGTGCTA,0.0653 z-score
GACGATCTCAGTACCGAGACGTGCTAG,0.118 z-score
TTAGGTATCCATATCCTTTAGTGCTAG,0.431 z-score
TTAGGACGGGGACTGGGTTAGTGCTAG,-0.0368 z-score
TTAGGTTTCTACACTGGGTTAGTGCTA,2.3 z-score

# Excerpt of the above (sample 1):
Oligonucleotide,RBNS enrichment (R)
AGCCACCAUGUGGUUGCUUUAAGAUUUAUGUAUAUGAGUACACUGUGGCUGUCUCAGACACACCAGAAGAGGGCAUCAGAUCCCAUUACAGAUGGUUGUGAGCCACCAUG,0.296
GAUCAGUUGACAGUGGCAAUAAACUGUAAAUAACUUGCCCUGGGGGCCUUUUUUUAAAAAACAAAACAAAUUCCCAAACCAUACUUGCUAAAAGUUCUGGUAAGUAUGUG,0.474
AGCGUUCACAGUUAGAUUUUCACCUCGUGCCACUCUCUUUUGGGGUCUGGCUUGAGCAUCUAUGGGCAGCCACAGCGACCAGUCUAGUCCCAGACAGCACAGGUCAAGCA,0.488
UAAGUUAUUUAAUGUUAAUAUACAUAGCUAGACUUAAGGUUUUUCAGAAAGAUGUCCAUAAUAAAUAUUAAAAACAAUGGUAUUUUUUAAAAAACUGCCUUAGGGUUUUA,0.499
UGAAAAGAAUUGUCUCUAAUUAUUUGAACCUCUGAAGAAUUGUACACAAGGAGGAUCAGACUUUAAAACUAUCCAUGUGGAUUCUGAGAGCUGCUGCCCAGCAGAAGUCU,0.28
UUGCUUUCAUUAUUACCAAGUCAAGAGUACAACAGAGCUAGUGAACCGUAGCAGCAUGCGAAGCAGGGCUGUGAACUAUCACCACACAGUGCAUUGUCCCGUGGAGGUGU,3.7
CCCAGUAUCCUCUUGUAUGACUGUAUAUGUCUAUGUCUGGGAUCCAGGGCAAAUGUGAAUUUUCUUUUGAUUUGGGAGAUUGUUCACAGGAAGUAGUCCUCCCCUCUCAU,0.482
